Assay results gathered from unrelated publications.
Numbered parts are unrelated; each lists some results of a single study. Positions count from the first letter of the parent shown.

Series 1
Target: RNA binding protein fox-1 homolog 2, RRM domain, GST-SBP tag (RBFOX2, Homo sapiens, UniProt O43251-10, residues 100-194)
Method: RNA Bind-n-Seq
Molecule type: RNA
Sample: in vitro
Tested at: 365 nM
Notes: natural RNA segment, single round, ends assumed
Relative to: no-protein control
Direction: higher = stronger binding
Constant ends, left off below: GGGAGUUCUACAGUCCGACGAUC … UGGAAUUCUCGGGUGCCAA
Construct (chain): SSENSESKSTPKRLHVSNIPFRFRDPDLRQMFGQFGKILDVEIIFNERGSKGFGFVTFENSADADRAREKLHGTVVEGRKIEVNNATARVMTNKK
Sequence	RBNS enrichment (R)
UCCAGAAUUUGAGUCCUGUUAAUGUAGUAGAAAAAAAAAAAAGAAAUUUUCUUUUUCUUUUGUGCUGGUCUUGCAAGUUUGUCUACCAGUAAGAGAGCAAAGUUUCCUUC	1.64
UUAUUGCAACAUACACCUGAGAUUUAACAAGGCCCCAAAUGACAGGAAUGUCAUAACCAUUCACACUCUAUGUCUUUCAACUCUCAUCAACAUGUUCAUCAACAUGCGUG	0.516
AUGACCUGGAGUUAGGAGUGAGUUUGUGUGUUGUUGAUAGAGCAACUCAGGUAAUUUCCAUUUCUGGUUUUAUAUUCUCUGUAUCUCCUGCCUGGGUGUCACUUUCUAGA	0.59
UCUUAUAUGCCAGAAUGUAGGCUGGUCCCUAUGUCAUGUCUUCCAUUAAGAACACUAAAAAGUCCUUGCAAGAAUGGAGAUAUGCAUUCAAGAGAGGUGCUAUCACAUAG	0.956
CGAACUGACAGGACACAGCAGGCUGGAGUUGGUGUUAGAUUGCUUCACAUUCUCUUGUCACCACCAAGAACUCCAAGUUUUUCGUUUUGUUUUGUUUUCAAAGUGCUUAC	0.439
GGGACCCCUCCUCAUGAACUCUGGAGCCCUGAGAGGAGAGGGGCAGCCCCCCACCUUGUCACCCUCAGGGCUUCCCCUUCUGUCCUCAUUCUUAGAGACUGCUUCUCCCA	0.543
GAGCCGUUGGGCGGUGCGCCAGAGGGACUGAAAUCUAUUUUGUCCCUAAAUAUUUUUUUAAAGAAUUGACCAAAUAAGUUUUUUUUUUUUUUUGCAUACUUGAGCGCUGC	1.03
CUAUGUUGACAUUUCGGGGAUAUUGUGUUCAAGAAUGAUUCCAAAUUUGAGCCACCAAAAUACACUGCAUUACAGAAAUUGCCACUUGAUUCUGUACUCUUAACCUUUGG	3.55
UUCUAAAAAAUGUCAGGUUUUUAAAAUCAUUUACCUUAUUAAAAUGAAAAGUGCCAUACUUAACUUUUAAAGGAAAGACCUGACUUGCUUUUUCUCUAUUUAGACUGUUU	0.41
AAUUAGUGGAUAGGUUAUUGUACUUCCAUUCAUACUCUGGGCACUUGUGUUAAAUUGUUCUGUUACACACUUUUGUCUAACCUGUUUUGUUUUUUAUCAUAUAUGCAUUA	1.27
CUGCCUGGGUUUUAUUUUUCUAAUCAGCAAGGUGCUUCACUGCCUUCUUGAGACGCCUCUCAAAGCUCUUAAAUGGCUCCUGUGCUAUGUGUGGUGUUGGCAGUCUAAUU	0.563
GUCCAUUCUAAACGCAGUUGCCAGUCUCAUCACUUCAGGUCCUUACGGGCAGGCUCUAGCAACUUUCCGUGUAUGGACCUCGUUUUUUGCUGUUUUGUGUUUAAUUAGUA	0.303

Series 2
Target: Histone acetyltransferase KAT6A, winged helix 1, GST fusion (KAT6A, Homo sapiens, UniProt Q92794, residues 1-85)
Method: protein binding microarray
Molecule type: double-stranded DNA, one strand shown
Sample: in vitro
Tested at: not given
Notes: 8-mer, flanks averaged, mean of 2 arrays, mostly near background
Relative to: not given
Direction: higher = stronger binding
Target sequence (chain): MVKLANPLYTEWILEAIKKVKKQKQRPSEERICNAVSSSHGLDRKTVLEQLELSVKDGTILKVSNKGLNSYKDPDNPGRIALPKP
Sequence	E-score
ATCTGTGG	-0.235
GGAGATCC	-0.0194
ATCAAAAA	-0.0107
ACTTGTCA	-0.0735
CGGCTCAG	0.263
CGTGCTCA	-0.0784
CCCCCGAG	0.133
CTCTAAAC	-0.0719
CATTTCAG	-0.281
ACCGTGAG	0.0687
CCGCACTC	0.235
ATGTACCA	-0.06
GCTAACAC	0.0596
GAAGCGGC	0.374
CGATTTAA	-0.157
TGACTCCA	-0.341
AGCTATGG	-0.127
CCAGCTCG	-0.0921
AGAGAGGA	-0.157
ACCCAAAG	-0.184
GGTATCTA	-0.016
AGGGTACT	-0.0672

Series 3
Target: ABI1, truncated, D143A, DHFR fusion (Arabidopsis thaliana)
Method: DHFR PCA, deep sequencing
Sample: yeast
Notes: methotrexate growth selection, single substitutions
Together with: (+)-ABA 0.11 µM
Relative to: wild-type fitted maximum
Direction: higher = stronger binding
Parent: PYL1, truncated, DHFR fusion (Arabidopsis thaliana); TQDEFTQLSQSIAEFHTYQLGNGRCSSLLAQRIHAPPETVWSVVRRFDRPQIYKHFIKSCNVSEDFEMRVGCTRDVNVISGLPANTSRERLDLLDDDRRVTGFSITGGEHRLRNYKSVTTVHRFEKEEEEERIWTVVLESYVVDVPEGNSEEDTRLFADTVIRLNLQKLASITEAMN
Variant	relative binding score [%]
R155C	6.59
T119G	-4.75
F124W	41.5
R49M	23.3
E139A	10.1
S117Q	1.88
E4T	19.9
S42G	21.5
Q19Y	4.92
Q31F	-2.13
I79R	1.9
S59A	13.5
E131N	60.4
R69Y	0.762
I52N	9.46
T119Y	-0.677
V43H	1.22
S11E	52.3

Series 4
Target: Ras GTPase-activating protein-binding protein 1, full length (G3BP1, Homo sapiens, UniProt Q13283)
Sequence of UniProt Q13283 (whole entry, looked up): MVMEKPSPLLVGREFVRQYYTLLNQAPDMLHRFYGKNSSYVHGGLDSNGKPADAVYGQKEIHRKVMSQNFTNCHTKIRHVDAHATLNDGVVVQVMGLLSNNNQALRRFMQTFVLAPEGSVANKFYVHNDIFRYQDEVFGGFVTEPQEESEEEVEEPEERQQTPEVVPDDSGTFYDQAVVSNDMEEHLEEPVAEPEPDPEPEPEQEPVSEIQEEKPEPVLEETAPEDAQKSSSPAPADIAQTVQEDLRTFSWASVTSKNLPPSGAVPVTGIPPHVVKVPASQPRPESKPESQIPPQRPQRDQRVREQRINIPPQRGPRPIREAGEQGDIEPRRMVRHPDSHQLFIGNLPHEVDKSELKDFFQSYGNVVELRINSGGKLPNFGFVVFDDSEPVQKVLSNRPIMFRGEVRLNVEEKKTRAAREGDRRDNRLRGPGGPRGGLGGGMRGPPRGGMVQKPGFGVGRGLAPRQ
Method: RNA Bind-n-Seq
Molecule type: RNA
Sample: in vitro
Tested at: 200 nM
Notes: whole 134-nt RNA, ends assumed
Together with: 150 mM KCl
Relative to: input library
Direction: higher = stronger binding
Constant ends, left off below: GGGAGUUCUACAGUCCGACGAUC … UGGAAUUCUCGGGUGUCAAGG
Sequence	log2 enrichment
UGCAUUUCCUGAGCUGAAGAAGGACCCAGACAUGGUGAAGGACAUCAUUAAUGAAGAAGAGGUGCAGUUUCUCAAGACUCUCAGCAGAGG	-0.833
CCUCAAGUCCUGUGCUACACAUCGUAUGUACCGAAUCGGUGGUGGUUUUUGGAAAGUAUUAUGUUACGCCGUUCGGAUCUGCACUUCCAG	-0.137
CAAGUCCUGUGCUACACAUCGUAUGUACCGAAUCGGGGAAAGGGAAAGGGGAAAGGAAAGUAUUAUGUUACGCCGUUCGGAUCUGCACUU	-0.117
UGGCCCUGGUGACAUGCGGGGAGGAAGAGGUGGCCUCAUGGAUCGUGGUGGUCCCGGUGGAAUGUUCAGAGGUGGCCGUGGUGGAGACAG	0.184
UGGGAGGUGGAUUUUGUUUAUUUUUUUAGCUCAUUUCCAGGGGUGGGAAUUGUUUUUUAAUAUGUGUCAUGAAUAAAGUUGUUUUUGAAA	0.204
CACAGACAACACGCACCCACACAGACACAGAGGGAAGGGGUUGGGAUGGGGACAGGGUGCACAGCAGGGCGUGGUAGGACCCCAGCCCCU	1.95
AAGUCCUGUGCUACACAUCGUAUGUACCGAAUCGGUUUUGGGUUUUGGUUUUGGGGAAAGUAUUAUGUUACGCCGUUCGGAUCUGCACUU	-1.15
AAGUCCUGUGCUACACAUCGUAUGUACCGAAUCGGGGUGGGGUUUUUGGGGUGGGGAAAGUAUUAUGUUACGCCGUUCGGAUCUGCACUU	0.367
UCAAGUCCUGUGCUACACAUCGUAUGUACCGAAUCGGUUUGGUUUGGGUUUGGGAAAGUAUUAUGUUACGCCGUUCGGAUCUGCACUUCC	-0.749
AGUCCUGUGCUACACAUCGUAUGUACCGAAUCAAACCCAAAUUUAAACCCCCCCAAAAAAGUAUUAUGUUACGCCGUUCGGAUCUGCACU	-0.444
GUCCUGUGCUACACAUCGUAUGUACCGAAUCGGGAAAAAGGAAAAAGGGGAAAAAGGGGAAAGUAUUAUGUUACGCCGUUCGGAUCUGCA	-0.345
CUGUGCUACACAUCGUAUGUACCGAAUCGGGGAAAAAAAGGGAAAAAAAGGGGAAAAAAAGGAAAGUAUUAUGUUACGCCGUUCGGAUCU	-0.678
CAAGUCCUGUGCUACACAUCGUAUGUACCGAAUCGGGUUUGGGGUUUGGUUUGGGAAAGUAUUAUGUUACGCCGUUCGGAUCUGCACUUC	-0.211
UCCAAACCCAAGAAAAAGAAAUCUUUUUCCAAGGAGGAGUUGAUGAGUAGCGAUCUUGAAGAGACCGCUGGCAGCACCAGUAUUCCCAAG	-0.715

Series 5
Target: ATF2, bZIP domain (human)
Method: DHFR protein complementation
Sample: yeast
Notes: single substitutions, most at no-binding floor
Relative to: wild-type JUN-FOS pair
Direction: higher = stronger binding
Parent: JUN, bZIP domain (human); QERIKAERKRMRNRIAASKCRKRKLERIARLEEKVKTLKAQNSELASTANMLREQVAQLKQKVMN; partner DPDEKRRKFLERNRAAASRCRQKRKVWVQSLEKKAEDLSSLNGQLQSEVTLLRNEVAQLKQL
Variant	binding fitness [natural log]
Q55W	-1.52
K39T	-1.4
A46T	-1.39
L31Y	-1.42
L59G	-1.41
T37E	-1.34
T48I	-1.37
V56T	-1.52
L52S	-1.51
T37V	-1.4
L45F	-1.53
A46L	-1.32
L38N	-1.44
V35S	-1.5
A40S	-1.27
L31G	-1.46
I28A	-1.47
L31E	-1.57

Series 6
Target: CCNB3, cyclin fold, Cln2 fusion (human)
Method: yeast growth competition, sequencing
Sample: yeast
Notes: weak parent motif
Relative to: not given
Direction: higher = stronger binding
Parent: DTL docking peptide (human); PSSMRKICTYFHR; partner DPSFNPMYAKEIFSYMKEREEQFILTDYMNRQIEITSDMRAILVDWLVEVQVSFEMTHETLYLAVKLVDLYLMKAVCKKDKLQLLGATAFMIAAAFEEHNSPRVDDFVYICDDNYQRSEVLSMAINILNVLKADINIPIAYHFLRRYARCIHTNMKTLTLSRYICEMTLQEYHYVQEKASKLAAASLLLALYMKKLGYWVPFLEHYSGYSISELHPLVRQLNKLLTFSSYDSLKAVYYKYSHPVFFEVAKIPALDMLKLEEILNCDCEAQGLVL
Variant	normalised enrichment score
PSSMRKACTYFHR [I7A]	-0.0136
PSSMRKIATYFHR [C8A]	-0.133
PSSMRKICTYAHR [F11A]	0.0892
PSAMRKICTYFHR [S3A]	0.531
PSSMRKICTAFHR [Y10A]	0.501
PSSARKICTYFHR [M4A]	0.613
PASMRKICTYFHR [S2A]	-0.219

Some of these lines once more (series 1):
Sequence	RBNS enrichment (R)
AUGACCUGGAGUUAGGAGUGAGUUUGUGUGUUGUUGAUAGAGCAACUCAGGUAAUUUCCAUUUCUGGUUUUAUAUUCUCUGUAUCUCCUGCCUGGGUGUCACUUUCUAGA	0.59
GGGACCCCUCCUCAUGAACUCUGGAGCCCUGAGAGGAGAGGGGCAGCCCCCCACCUUGUCACCCUCAGGGCUUCCCCUUCUGUCCUCAUUCUUAGAGACUGCUUCUCCCA	0.543
CGAACUGACAGGACACAGCAGGCUGGAGUUGGUGUUAGAUUGCUUCACAUUCUCUUGUCACCACCAAGAACUCCAAGUUUUUCGUUUUGUUUUGUUUUCAAAGUGCUUAC	0.439
GAGCCGUUGGGCGGUGCGCCAGAGGGACUGAAAUCUAUUUUGUCCCUAAAUAUUUUUUUAAAGAAUUGACCAAAUAAGUUUUUUUUUUUUUUUGCAUACUUGAGCGCUGC	1.03
CUAUGUUGACAUUUCGGGGAUAUUGUGUUCAAGAAUGAUUCCAAAUUUGAGCCACCAAAAUACACUGCAUUACAGAAAUUGCCACUUGAUUCUGUACUCUUAACCUUUGG	3.55
UUAUUGCAACAUACACCUGAGAUUUAACAAGGCCCCAAAUGACAGGAAUGUCAUAACCAUUCACACUCUAUGUCUUUCAACUCUCAUCAACAUGUUCAUCAACAUGCGUG	0.516
CUGCCUGGGUUUUAUUUUUCUAAUCAGCAAGGUGCUUCACUGCCUUCUUGAGACGCCUCUCAAAGCUCUUAAAUGGCUCCUGUGCUAUGUGUGGUGUUGGCAGUCUAAUU	0.563
AAUUAGUGGAUAGGUUAUUGUACUUCCAUUCAUACUCUGGGCACUUGUGUUAAAUUGUUCUGUUACACACUUUUGUCUAACCUGUUUUGUUUUUUAUCAUAUAUGCAUUA	1.27
UCUUAUAUGCCAGAAUGUAGGCUGGUCCCUAUGUCAUGUCUUCCAUUAAGAACACUAAAAAGUCCUUGCAAGAAUGGAGAUAUGCAUUCAAGAGAGGUGCUAUCACAUAG	0.956
UUCUAAAAAAUGUCAGGUUUUUAAAAUCAUUUACCUUAUUAAAAUGAAAAGUGCCAUACUUAACUUUUAAAGGAAAGACCUGACUUGCUUUUUCUCUAUUUAGACUGUUU	0.41
UCCAGAAUUUGAGUCCUGUUAAUGUAGUAGAAAAAAAAAAAAGAAAUUUUCUUUUUCUUUUGUGCUGGUCUUGCAAGUUUGUCUACCAGUAAGAGAGCAAAGUUUCCUUC	1.64
GUCCAUUCUAAACGCAGUUGCCAGUCUCAUCACUUCAGGUCCUUACGGGCAGGCUCUAGCAACUUUCCGUGUAUGGACCUCGUUUUUUGCUGUUUUGUGUUUAAUUAGUA	0.303
